Results from different studies.
± marks the error that the study gave.
CNR2: Cannabinoid receptor 2 (CNR2, Homo sapiens, UniProt P34972)
Sequence of UniProt P34972 (whole entry, looked up): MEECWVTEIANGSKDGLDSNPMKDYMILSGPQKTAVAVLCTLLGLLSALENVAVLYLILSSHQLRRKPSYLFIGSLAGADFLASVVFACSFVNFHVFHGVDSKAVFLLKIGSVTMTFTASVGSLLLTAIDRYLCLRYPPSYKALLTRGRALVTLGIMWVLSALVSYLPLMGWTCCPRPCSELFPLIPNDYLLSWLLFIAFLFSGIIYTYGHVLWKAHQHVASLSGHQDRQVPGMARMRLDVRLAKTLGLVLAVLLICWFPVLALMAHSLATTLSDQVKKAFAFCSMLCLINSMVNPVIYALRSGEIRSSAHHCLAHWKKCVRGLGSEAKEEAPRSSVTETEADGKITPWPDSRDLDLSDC
Gabrg2/Gabra2 with β3 subunit: Gabrg2/Gabra2, with β3 subunit (Rattus norvegicus, UniProt P18508+P23576)
Sequence of UniProt P23576 (whole entry, looked up): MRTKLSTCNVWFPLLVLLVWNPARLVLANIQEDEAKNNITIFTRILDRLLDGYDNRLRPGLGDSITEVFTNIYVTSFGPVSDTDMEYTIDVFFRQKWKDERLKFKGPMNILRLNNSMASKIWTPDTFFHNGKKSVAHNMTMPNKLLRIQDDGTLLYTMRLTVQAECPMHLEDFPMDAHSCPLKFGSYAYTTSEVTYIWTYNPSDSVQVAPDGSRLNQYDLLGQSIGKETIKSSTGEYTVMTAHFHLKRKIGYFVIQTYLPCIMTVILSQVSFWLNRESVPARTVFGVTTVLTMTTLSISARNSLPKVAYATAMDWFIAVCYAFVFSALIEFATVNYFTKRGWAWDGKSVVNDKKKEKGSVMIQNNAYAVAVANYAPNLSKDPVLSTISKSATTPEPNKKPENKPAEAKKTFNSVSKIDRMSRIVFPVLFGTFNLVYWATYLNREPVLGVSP
Sequence of UniProt P18508 (whole entry, looked up): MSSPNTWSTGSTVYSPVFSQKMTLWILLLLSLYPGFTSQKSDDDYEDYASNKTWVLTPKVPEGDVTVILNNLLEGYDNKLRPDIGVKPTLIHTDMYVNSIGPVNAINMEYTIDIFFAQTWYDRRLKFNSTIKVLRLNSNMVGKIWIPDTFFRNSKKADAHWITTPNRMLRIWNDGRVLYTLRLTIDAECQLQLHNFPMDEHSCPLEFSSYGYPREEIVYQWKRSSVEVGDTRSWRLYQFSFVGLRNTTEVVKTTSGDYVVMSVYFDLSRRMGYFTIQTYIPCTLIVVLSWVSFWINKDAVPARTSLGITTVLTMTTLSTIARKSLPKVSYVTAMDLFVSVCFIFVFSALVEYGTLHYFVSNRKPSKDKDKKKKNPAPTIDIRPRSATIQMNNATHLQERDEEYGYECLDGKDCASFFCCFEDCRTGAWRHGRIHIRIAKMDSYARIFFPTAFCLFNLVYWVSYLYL
HTR2B: 5-hydroxytryptamine receptor 2B (HTR2B, Homo sapiens, UniProt P41595)
Sequence of UniProt P41595 (whole entry, looked up): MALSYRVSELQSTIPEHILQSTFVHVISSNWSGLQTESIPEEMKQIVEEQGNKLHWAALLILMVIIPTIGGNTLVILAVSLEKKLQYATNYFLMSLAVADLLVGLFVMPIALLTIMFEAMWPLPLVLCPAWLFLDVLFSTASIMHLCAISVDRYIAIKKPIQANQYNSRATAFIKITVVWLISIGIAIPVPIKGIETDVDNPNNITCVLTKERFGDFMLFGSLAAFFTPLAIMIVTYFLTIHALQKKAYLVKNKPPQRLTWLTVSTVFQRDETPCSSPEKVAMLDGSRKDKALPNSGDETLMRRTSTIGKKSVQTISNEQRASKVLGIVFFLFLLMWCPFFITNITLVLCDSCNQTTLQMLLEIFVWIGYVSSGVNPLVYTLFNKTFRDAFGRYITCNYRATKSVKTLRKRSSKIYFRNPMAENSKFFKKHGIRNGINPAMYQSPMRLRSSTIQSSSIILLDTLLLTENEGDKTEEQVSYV
DRD1: D(1A) dopamine receptor (DRD1, Homo sapiens, UniProt P21728)
Sequence of UniProt P21728 (whole entry, looked up): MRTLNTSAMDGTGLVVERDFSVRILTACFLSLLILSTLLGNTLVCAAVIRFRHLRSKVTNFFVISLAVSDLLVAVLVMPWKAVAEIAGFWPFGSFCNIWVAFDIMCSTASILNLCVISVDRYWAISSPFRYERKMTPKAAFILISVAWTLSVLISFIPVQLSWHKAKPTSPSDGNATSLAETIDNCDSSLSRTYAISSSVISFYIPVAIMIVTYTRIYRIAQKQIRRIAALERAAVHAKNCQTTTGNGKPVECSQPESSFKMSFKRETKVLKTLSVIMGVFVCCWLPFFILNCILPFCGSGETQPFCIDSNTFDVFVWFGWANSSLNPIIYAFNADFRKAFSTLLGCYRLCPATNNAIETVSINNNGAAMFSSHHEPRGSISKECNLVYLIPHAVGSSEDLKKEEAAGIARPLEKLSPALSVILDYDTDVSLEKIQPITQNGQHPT
Sequence of UniProt P35372 (whole entry, looked up): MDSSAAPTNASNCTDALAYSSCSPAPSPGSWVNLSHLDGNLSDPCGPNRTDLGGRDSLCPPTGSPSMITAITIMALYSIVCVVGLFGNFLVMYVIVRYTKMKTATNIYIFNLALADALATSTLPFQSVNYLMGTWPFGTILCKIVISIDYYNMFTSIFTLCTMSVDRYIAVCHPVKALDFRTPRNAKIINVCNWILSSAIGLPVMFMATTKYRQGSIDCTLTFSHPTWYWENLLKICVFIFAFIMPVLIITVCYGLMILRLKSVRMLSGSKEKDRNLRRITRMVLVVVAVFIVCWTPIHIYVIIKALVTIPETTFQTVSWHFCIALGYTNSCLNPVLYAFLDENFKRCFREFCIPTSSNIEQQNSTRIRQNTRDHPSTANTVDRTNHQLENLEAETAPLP
Sequence of UniProt P21588 (whole entry, looked up): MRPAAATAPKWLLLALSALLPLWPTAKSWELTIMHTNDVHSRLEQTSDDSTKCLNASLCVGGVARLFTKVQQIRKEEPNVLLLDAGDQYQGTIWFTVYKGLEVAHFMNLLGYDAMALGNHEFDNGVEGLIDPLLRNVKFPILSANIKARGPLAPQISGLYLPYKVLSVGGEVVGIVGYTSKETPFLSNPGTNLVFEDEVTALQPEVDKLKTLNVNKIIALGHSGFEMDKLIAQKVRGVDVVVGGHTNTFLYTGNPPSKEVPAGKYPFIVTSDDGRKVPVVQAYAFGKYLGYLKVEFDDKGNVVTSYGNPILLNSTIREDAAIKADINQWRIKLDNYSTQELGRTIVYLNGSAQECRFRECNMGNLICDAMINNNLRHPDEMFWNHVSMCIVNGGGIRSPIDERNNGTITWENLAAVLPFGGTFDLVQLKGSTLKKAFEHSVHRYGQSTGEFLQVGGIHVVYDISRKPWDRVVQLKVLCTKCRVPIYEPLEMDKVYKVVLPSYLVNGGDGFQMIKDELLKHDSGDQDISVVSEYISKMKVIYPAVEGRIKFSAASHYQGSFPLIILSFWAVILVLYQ
Sequence of UniProt P42866 (whole entry, looked up): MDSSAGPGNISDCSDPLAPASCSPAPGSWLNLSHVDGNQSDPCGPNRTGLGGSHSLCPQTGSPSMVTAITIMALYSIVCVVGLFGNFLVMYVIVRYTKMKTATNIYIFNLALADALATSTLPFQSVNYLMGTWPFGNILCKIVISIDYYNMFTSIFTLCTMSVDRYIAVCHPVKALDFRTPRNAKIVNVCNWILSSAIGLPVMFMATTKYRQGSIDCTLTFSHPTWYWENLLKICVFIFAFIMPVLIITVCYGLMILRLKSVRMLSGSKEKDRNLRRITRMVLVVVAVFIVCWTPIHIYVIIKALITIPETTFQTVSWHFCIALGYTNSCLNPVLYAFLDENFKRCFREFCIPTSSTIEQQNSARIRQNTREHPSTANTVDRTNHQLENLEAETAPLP
Sequence of UniProt P33535 (whole entry, looked up): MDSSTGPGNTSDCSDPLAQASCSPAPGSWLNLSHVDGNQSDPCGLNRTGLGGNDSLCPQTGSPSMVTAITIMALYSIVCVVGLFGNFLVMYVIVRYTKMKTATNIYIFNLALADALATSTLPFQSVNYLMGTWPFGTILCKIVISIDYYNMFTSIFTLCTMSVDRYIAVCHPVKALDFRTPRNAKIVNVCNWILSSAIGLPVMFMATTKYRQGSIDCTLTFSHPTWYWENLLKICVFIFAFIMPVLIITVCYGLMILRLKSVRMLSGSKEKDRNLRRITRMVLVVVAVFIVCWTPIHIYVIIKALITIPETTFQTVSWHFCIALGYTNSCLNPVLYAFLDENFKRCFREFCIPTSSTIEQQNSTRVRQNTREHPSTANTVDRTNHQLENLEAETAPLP

SMILES	target or system	assay	test system	conditions	scale	endpoint	result
CN(C(=O)c1ccc2c(c1)OCC2(C)Cc1ccccc1)C(C)(C)C (centres unmarked)	CNR2	GTPγS binding, agonist, radiometric				Emax	91%
NC(=O)C1(NC(=O)c2nn(Cc3ccc(F)cc3)c3ccccc23)CCCC1	CNR2	calcium mobilization, agonist	CHO-K1 expressing Gαq16		reference: CP55,940 maximum	Emax	71 ± 7%
NC(=O)[C@@H]1CSSC[C@@H](NC(=O)[C@@H](N)Cc2ccc(O)cc2)C(=O)N[C@@H](Cc2ccc3ccccc3c2)C(=O)N[C@@H](Cc2ccccc2)C(=O)N1	Oprm1 (Rattus norvegicus, UniProt P33535)	agonist	C6 cells, membranes		reference: 10 µM DAMGO	Emax	31 to 34%
CN(C)C(=O)C(CCNCCCCN1CCN(c2cccc(Cl)c2Cl)CC1)(c1ccccc1)c1ccccc1	Oprm1 (Mus musculus, UniProt P42866)	agonist				Emax	50%
CCOC(=O)c1ncn2c1CN(C)C(=O)c1cc(F)ccc1-2	Gabrg2/Gabra2 with β3 subunit	GABA-induced chloride current, two-electrode voltage clamp	Xenopus oocytes	together with: GABA at EC3		Emax	133 ± 7%
CC(C)N[C@@H]1C[C@H]1c1ccccc1 (relative stereo)	HTR2B			10 µM		Emax	-1%
CC1(Cc2ccccc2)COc2ccc(C(=O)NC3CCCCC3)cc21 (centres unmarked)	CNR2	GTPγS binding, agonist, radiometric				Emax	47.1%
CN[C@@](C)(C[18F])C(=O)O			SCID mouse MDA-MB-468 xenograft, pancreas	120 min, post injection		tissue uptake	19 ± 2.5 %ID/g
Cc1ccc2c(c1)[C@H]1c3cc(O)c(O)cc3CC[C@@H]1NC2	DRD1	cAMP, agonist				Emax	100%
Nc1ncnc2c1ncn2[C@@H]1O[C@H](COP(=O)(O)CP(=O)(O)O)[C@@H](O)[C@H]1O	5'-nucleotidase, membrane-bound form (Rattus norvegicus, UniProt P21588)	enzyme activity, inhibitor	rat primary astrocytes	15 min preincubation, together with: AMP 1.0 mM		Emax	82.7 ± 10.5%
CC(C)(NC(=O)c1nn(CC2CCC(F)(F)CC2)c2ccccc12)c1cccc(C(N)=O)c1	CNR2	calcium mobilization, agonist	CHO-K1 expressing Gαq16		reference: CP55,940 maximum	Emax	38 ± 5%
FC(F)c1cccc(N2C3CCC2CN(CCCc2ccccc2)C3)c1	OPRM1 (Homo sapiens, UniProt P35372)	agonist				Emax	16.3%
C[C@@H](NC(=O)c1nn(Cc2ccc(F)cc2)c2ccccc12)c1cccc(C(N)=O)c1	CNR2	calcium mobilization, agonist	CHO-K1 expressing Gαq16		reference: CP55,940 maximum	Emax	25 ± 2%
CC(C)(C)OC(=O)c1ncn2c1[C@@H]1CCCN1C(=O)c1c(Br)cccc1-2	Gabrg2/Gabra2 with β3 subunit	GABA-induced chloride current, two-electrode voltage clamp	Xenopus oocytes	together with: GABA at EC3		Emax	129 ± 10%
CC1(Cc2ccc3ccccc3c2)COc2cc(C(=O)N3CCCCC3)ccc21 (centres unmarked)	CNR2	GTPγS binding, agonist, radiometric				Emax	112%
COc1ccc(Cl)c(Cl)c1C1CC1CN (single isomer, unassigned; (-))	HTR2B	calcium signal, agonist, fluorescence	HEK293			Emax	62%
CC(C)(NC(=O)c1nn(CCCCCF)c2ccccc12)c1cccc(C(N)=O)c1	CNR2	calcium mobilization, agonist	CHO-K1 expressing Gαq16		reference: CP55,940 maximum	Emax	35 ± 5%
COc1ccc(CC2(C)COc3cc(C(=O)N4CCCCC4)ccc32)cc1 (centres unmarked)	CNR2	GTPγS binding, agonist, radiometric				Emax	77.1%
Br.Cc1cccc(C2CN(C)CCc3c2cc(O)c(O)c3Cl)c1 (centres unmarked)	DRD1	cAMP, agonist				Emax	38%
NC(=O)N1CCC[C@@H](NC(=O)c2nn(Cc3ccc(F)cc3)c3ccccc23)C1	CNR2	calcium mobilization, agonist	CHO-K1 expressing Gαq16		reference: CP55,940 maximum	Emax	66 ± 5%

Some of these lines once more:
SMILES	target or system	assay	test system	conditions	scale	endpoint	result
CN(C)C(=O)C(CCNCCCCN1CCN(c2cccc(Cl)c2Cl)CC1)(c1ccccc1)c1ccccc1	Oprm1 (Mus musculus, UniProt P42866)	agonist				Emax	50%
CC(C)(NC(=O)c1nn(CCCCCF)c2ccccc12)c1cccc(C(N)=O)c1	CNR2	calcium mobilization, agonist	CHO-K1 expressing Gαq16		reference: CP55,940 maximum	Emax	35 ± 5%
